Experimental data pooled from the literature.
Each line is one published result; not all experiments were run side by side. ± gives the spread as reported.

| Compound | target | assay | system | conditions | scale | endpoint | value |
| --- | --- | --- | --- | --- | --- | --- | --- |
| CCN(CCCCOc1ccc(CCC(=O)N2CCC(Cc3ccccc3)CC2)cc1OC)Cc1ccccc1 | butyrylcholinesterase | dilution reversibility | – | 0.1 × IC50, 120 min | relative to: uninhibited enzyme | remaining activity | 71.8% |
| CC(=O)N[C@H]1CNC(=O)c2cc(cn2C)NC(=O)c2cc(cn2C)NC(=O)c2cc(cn2C)NC(=O)c2nc(cn2C)NC(=O)C[C@@H](NC(C)=O)CNC(=O)c2cc(cn2C)NC(=O)c2cc(cn2C)NC(=O)c2cc(cn2C)NC(=O)c2nc(cn2C)NC(=O)C1 | androgen response element DNA duplex | DNA binding | – | 2 µM, pH 7.0 | relative to: DNA alone | ΔTm | 22.1 °C |
| C[C@H](N)C(=O)N[C@@H](CO)C(=O)N[C@@H](C)C(=O)N[C@H]1CSC(=O)[C@H](Cc2ccccc2)NC(=O)[C@H](Cc2ccc(O)cc2)NC(=O)[C@H](C)NC(=O)[C@H](CO)NC1=O | AgrC-III | inhibitor, GFP reporter | Staphylococcus epidermidis, agr group-III reporter | 100 nM | – | AgrC-III activity | inhibited |
| O=C1c2ccccc2N(Cc2ccccc2)C12CCCC2 | butyrylcholinesterase | – | – | 10 µM | – | remaining activity | 75.9 ± 1.27% |
| Cl.Cl.Cl.Cl.Cl.Cl.Cl.Cl.Cl.Cl.Cl.Cl.NC[C@@H]1O[C@H](O[C@H]2[C@@H](O)[C@H](O[C@@H]3[C@@H](O)[C@H](N)C[C@H](N)[C@H]3O[C@H]3O[C@H](CN)[C@@H](O)[C@H](O)[C@H]3N)O[C@@H]2Cn2cc(COCCCCCCCCCCCCOCc3cn(C[C@H]4O[C@@H](O[C@@H]5[C@@H](O)[C@H](N)C[C@H](N)[C@H]5O[C@H]5O[C@H](CN)[C@@H](O)[C@H](O)[C@H]5N)[C@H](O)[C@@H]4O[C@H]4O[C@@H](CN)[C@@H](O)[C@H](O)[C@H]4N)nn3)nn2)[C@H](N)[C@@H](O)[C@@H]1O | HIV-1 TAR RNA | UV thermal denaturation | – | 1 molar equivalents to RNA, pH 6.8, TAR RNA 1 µM per strand | – | Tm | 72.1 °C |
| N[C@H](C(=O)N1CCCC1)C1CCN(c2nccc3c(-c4ncc(Cl)cc4Cl)cccc23)CC1 | peptidylarginine deiminase (human) | inhibitor | human neutrophils | up to 10 µM, together with: ionomycin 5 µM | – | protein citrullination | inhibited |
| Cc1cc(C(=O)Nc2nc3cccc(C)c3n2[C@H]2CCCCN(C(=O)/C=C/CN(C)C)C2)ccn1 | Trypanosoma brucei CLK1 wild type | differential scanning fluorimetry | – | – | – | thermal shift | 12 °C |
| C[C@H](NC(=O)[C@@H]1CCCN1C(=O)[C@H](Cc1ccc(O)cc1)NC(=O)CNC(=O)[C@H](CO)NC(=O)[C@H](Cc1ccccc1)NC(=O)[C@@H](N)[C@@H](C)O)C(=O)N[C@@H](Cc1ccccc1)C(=O)O | µ opioid receptor | – | rat supraoptic nucleus neurons, Sprague Dawley rat | 1 µM, held at -50 mV | – | outward current | 94 ± 13.1 pA |
| [CH3][Ti+2][O]C(=O)c1ccc([S][Au][PH](c2ccccc2)(c2ccccc2)c2ccccc2)cc1.c1cc[cH-]c1.c1cc[cH-]c1 | thioredoxin reductase human | enzyme activity, inhibitor | CAKI-1 | 5 µM, 5 h | – | inhibition | 68.2% |
| Nc1c2c([n+](CCCCCCCCCC[n+]3c4c(c(N)c5ccccc53)CCC4)c3ccccc13)CCC2 | SIVmac251.30 Env | inhibitor | – | concentration not given, low Env expression | – | cell-cell fusion | inhibited |
| Cl.Cl.Cl.Cl.Cl.Cl.Cl.Cl.Cl.Cl.Cl.Cl.NC[C@@H]1O[C@H](O[C@H]2[C@@H](O)[C@H](O[C@@H]3[C@@H](O)[C@H](N)C[C@H](N)[C@H]3O[C@H]3O[C@H](CN)[C@@H](O)[C@H](O)[C@H]3N)O[C@@H]2Cn2cc(-c3ccc(-c4cn(C[C@H]5O[C@@H](O[C@@H]6[C@@H](O)[C@H](N)C[C@H](N)[C@H]6O[C@H]6O[C@H](CN)[C@@H](O)[C@H](O)[C@H]6N)[C@H](O)[C@@H]5O[C@H]5O[C@@H](CN)[C@@H](O)[C@H](O)[C@H]5N)nn4)cc3)nn2)[C@H](N)[C@@H](O)[C@@H]1O | HIV-1 TAR RNA | UV thermal denaturation | – | 1 molar equivalents to RNA, pH 6.8, TAR RNA 1 µM per strand | relative to: RNA alone, higher is more stabilization | ΔTm | 9.6 °C |
| CCC(=O)C[C@@H](O)C[C@@H](C)C[C@H](NC(=O)[C@@H]1C[C@H](C)CN1C(=O)/C=C/[C@@H](C)CC)C(=O)N[C@H](C(=O)NC(C)(C)C(=O)N[C@@H](CC(C)C)C(=O)N[C@@H](CC(C)C)C(=O)NC(C)(C)C(=O)NC(C)(C)C(=O)NCCC(=O)N[C@@H](C)CNC)[C@H](O)C(C)C | mTORC1 | inhibitor, immunoblot | MDA-MB-453 | 100 nM, 2 h | – | phospho-RPS6 level | decreased |
| O=c1c(-c2ccccc2)c(O)c2cc(-c3cccc(-c4ccccc4)c3)cnc2n1O | fowlpox virus resolvase | inhibitor | – | concentration not given | – | Holliday junction cleavage | inhibited |
| N#Cc1ccc(CN2c3ccccc3C(=O)C23CCCC3)cc1 | butyrylcholinesterase | – | – | 10 µM | – | remaining activity | 88.4 ± 0.89% |
| CC(=O)NCCC[C@@H](NC(=O)[C@@H](N)Cc1ccc(O)cc1)C(=O)N[C@@H](Cc1ccccc1)C(=O)NCC(=O)N[C@@H](Cc1ccc(O)cc1)C(=O)N1CCC[C@H]1C(=O)N[C@@H](CO)C(N)=O | mu opioid receptor | radioligand binding | CHO cells | together with: 1 nM [3H]DAMGO | – | IC50 | 4.25 ± 0.35 nM |
| N=C(N)NCCC[C@H](N)C(=O)N1CCC[C@H]1C(=O)N[C@@H](CCCCN)C(=O)N1CCC[C@H]1C(=O)N[C@@H](CCC(N)=O)C(=O)N[C@@H](CCC(N)=O)C(=O)N[C@@H](Cc1ccccc1)C(=O)N[C@@H](Cc1ccccc1)C(=O)NCC(N)=O | MRGPRX2, human | Ca2+ mobilization, agonist, Fura-2 | LAD2 IgE-sensitized | 37 °C | – | EC50 | 3500 nM |

| Compound | target | assay | system | conditions | scale | endpoint | value |
| --- | --- | --- | --- | --- | --- | --- | --- |
| Cc1ncsc1-c1ccc(CNC(=O)[C@@H]2C[C@@H](O)CN2C(=O)[C@@H](NC(=O)Cc2ccc(-c3ccc(CNC(=O)c4cc5c(cc4CS(C)(=O)=O)-c4cn(C)c(=O)c6[nH]cc(c46)CN5c4ncc(F)cc4F)cc3)cc2)C(C)(C)C)cc1 | BRD3 (Spodoptera frugiperda) | protein degradation, degrader, targeted LC-MS | Sf9 | – | – | Dmax | > 70% |
| CC(C)C[C@@H]1NC(=O)[C@H](CCC(N)=O)NC(=O)[C@H](CCC(=O)O)NC(=O)[C@@H](N)CSSC[C@@H](C(=O)O)NC(=O)[C@H](CC(C)C)NC(=O)[C@H]([C@@H](C)O)NC(=O)[C@H](CCCCN)NC(=O)[C@H](CO)NC(=O)[C@H](CCCCN)NC(=O)[C@H](CCCCN)NC1=O | Mac-1 (CD40L binding) | cell adhesion, flow chamber | CHO expressing Mac-1 | shear stress | – | IC50 | 206 nM |
| CCN(CC)CCCC(C)Nc1cc[n+]([Ru-]2[NH2+]CC[NH2+]2)c2cc(Cl)ccc12.Cc1ccc(C(C)C)cc1.F[P-](F)(F)(F)(F)F.F[P-](F)(F)(F)(F)F (stereo not shown) | calf thymus DNA | thermal denaturation | – | 0.5 equivalents per DNA, 1 h, pH 7.39, 25 °C, 25 mM NaClO4 | – | delta Tm | 3.4 °C |
| Cl.Cl.Cl.Cl.Cl.Cl.Cl.Cl.Cl.Cl.Cl.Cl.NC[C@@H]1O[C@H](O[C@H]2[C@@H](O)[C@H](O[C@@H]3[C@@H](O)[C@H](N)C[C@H](N)[C@H]3O[C@H]3O[C@H](CN)[C@@H](O)[C@H](O)[C@H]3N)O[C@@H]2Cn2cc(CCCCCCc3cn(C[C@H]4O[C@@H](O[C@@H]5[C@@H](O)[C@H](N)C[C@H](N)[C@H]5O[C@H]5O[C@H](CN)[C@@H](O)[C@H](O)[C@H]5N)[C@H](O)[C@@H]4O[C@H]4O[C@@H](CN)[C@@H](O)[C@H](O)[C@H]4N)nn3)nn2)[C@H](N)[C@@H](O)[C@@H]1O | HIV-1 TAR RNA | UV thermal denaturation | – | 1 molar equivalents to RNA, pH 6.8, TAR RNA 1 µM per strand | – | Tm | 74.9 °C |
| CCCO[C@H]1[C@H](O)[C@@H](N)[C@@H](O[C@H]2[C@H](O[C@@H]3O[C@H](CO)[C@@H](O[C@H]4O[C@@H](CN)[C@@H](O)[C@H](O)[C@H]4N)[C@H]3O)[C@@H](O)[C@H](N)C[C@@H]2N)O[C@@H]1CO | rabbit reticulocyte ribosome | luciferase translation, cell-free translation | rabbit reticulocyte lysate | – | – | IC50 | 59.9 ± 30.1 µg/mL |
| Cc1cc(Nc2nc(C[C@@]3(C(=O)O)CCN(Cc4cccc(Cl)c4F)[C@H](C)C3)cc(C)c2F)[nH]n1 | AURKA (Thr288 phosphorylation), mouse | AURKA phosphorylation, inhibitor, measured: phospho-AURKA Thr288 | mouse, NCI-H446 xenograft, tumour | oral, 20 mg/kg single dose, 1 h | – | inhibition | 92.5% |
| NC(=O)[C@H](CO)NC(=O)[C@@H]1CCCN1C(=O)[C@H](Cc1ccc(O)cc1)NC(=O)CNC(=O)[C@H](Cc1ccccc1)NC(=O)[C@@H](CCCN=C=S)NC(=O)[C@@H](N)Cc1ccc(O)cc1 | mu opioid receptor | radioligand binding | CHO cells | together with: 1 nM [3H]DAMGO | – | IC50 | 0.81 ± 0.29 nM |
| COC[C@@H](NC(C)=O)C(=O)NCc1ccc(OCc2ccccc2)cc1 | rat voltage-gated sodium channels | whole-cell patch clamp | rat embryonic cortical neurons | 10 µM | – | V1/2 of activation | -36.3 ± 4.9 mV |
| CC(=O)Nc1ccc2ccn(-c3cc(NC45CC6CC(CC(C6)C4)C5)n4ncc(C#N)c4n3)c2c1 | CSNK2A1 and CSNK2A2, human | inactive, NanoBRET | – | 10 µM | – | activity | inactive |
| O=C1c2cc(Br)ccc2NC12CCCC2 | butyrylcholinesterase | – | – | 10 µM | – | remaining activity | 76.3 ± 3.15% |
| CC(=O)NCCCC[C@@H](NC(=O)[C@@H](N)Cc1ccc(O)cc1)C(=O)N[C@@H](Cc1ccccc1)C(=O)NCC(=O)N[C@@H](Cc1ccc(O)cc1)C(=O)N1CCC[C@H]1C(=O)N[C@@H](CO)C(N)=O | mu opioid receptor | radioligand binding | CHO cells | together with: 1 nM [3H]DAMGO | – | IC50 | 29.8 ± 7.6 nM |
| CN(CCCNC(=O)c1cccc(C(=O)O)c1)CCCNC(=O)c1cc(NC(=O)c2cc(NC(=O)c3cc(NC(=O)c4nc(NC(=O)C[C@@H](N)CNC(=O)c5cc(NC(=O)c6cc(NC(=O)c7cc(NC(=O)c8nccn8C)cn7C)cn6C)cn5C)cn4C)cn3C)cn2C)cn1C | androgen response element DNA duplex | DNA binding | – | 2 µM, pH 7.0 | relative to: DNA alone | ΔTm | 18.4 °C |
| CC(=O)N[C@H]1CSC(=O)[C@H](CC(C)C)NC(=O)[C@H](Cc2ccc(O)cc2)NC(=O)[C@H](CC(N)=O)NC(=O)[C@H](CO)NC1=O | AgrC-III | GFP reporter | Staphylococcus epidermidis, agr group-III reporter | 10 µM | – | AgrC-III inhibition | inactive |
| NC(=O)[C@H](CO)NC(=O)[C@@H]1CCCN1C(=O)[C@H](Cc1ccc(O)cc1)NC(=O)CNC(=O)[C@H](Cc1ccccc1)NC(=O)[C@@H](CCCCNC(=O)CBr)NC(=O)[C@@H](N)Cc1ccc(O)cc1 | mu opioid receptor | radioligand binding | – | – | relative to: IC50 delta over IC50 mu | selectivity ratio | 73 |
| CC(=O)N[C@H]1CNC(=O)c2cc(cn2C)NC(=O)c2cc(cn2C)NC(=O)c2cc(cn2C)NC(=O)c2nc(cn2C)NC(=O)C[C@@H](N)CNC(=O)c2cc(cn2C)NC(=O)c2cc(cn2C)NC(=O)c2cc(cn2C)NC(=O)c2nc(cn2C)NC(=O)C1 | androgen response element DNA duplex | DNA binding | – | 2 µM, pH 7.0 | – | Tm | 81.2 °C |

A few entries again:
| Compound | target | assay | system | conditions | scale | endpoint | value |
| --- | --- | --- | --- | --- | --- | --- | --- |
| NC(=O)[C@H](CO)NC(=O)[C@@H]1CCCN1C(=O)[C@H](Cc1ccc(O)cc1)NC(=O)CNC(=O)[C@H](Cc1ccccc1)NC(=O)[C@@H](CCCN=C=S)NC(=O)[C@@H](N)Cc1ccc(O)cc1 | mu opioid receptor | radioligand binding | CHO cells | together with: 1 nM [3H]DAMGO | – | IC50 | 0.81 ± 0.29 nM |
| N#Cc1ccc(CN2c3ccccc3C(=O)C23CCCC3)cc1 | butyrylcholinesterase | – | – | 10 µM | – | remaining activity | 88.4 ± 0.89% |
| N=C(N)NCCC[C@H](N)C(=O)N1CCC[C@H]1C(=O)N[C@@H](CCCCN)C(=O)N1CCC[C@H]1C(=O)N[C@@H](CCC(N)=O)C(=O)N[C@@H](CCC(N)=O)C(=O)N[C@@H](Cc1ccccc1)C(=O)N[C@@H](Cc1ccccc1)C(=O)NCC(N)=O | MRGPRX2, human | Ca2+ mobilization, agonist, Fura-2 | LAD2 IgE-sensitized | 37 °C | – | EC50 | 3500 nM |
| COC[C@@H](NC(C)=O)C(=O)NCc1ccc(OCc2ccccc2)cc1 | rat voltage-gated sodium channels | whole-cell patch clamp | rat embryonic cortical neurons | 10 µM | – | V1/2 of activation | -36.3 ± 4.9 mV |
| CC(=O)Nc1ccc2ccn(-c3cc(NC45CC6CC(CC(C6)C4)C5)n4ncc(C#N)c4n3)c2c1 | CSNK2A1 and CSNK2A2, human | inactive, NanoBRET | – | 10 µM | – | activity | inactive |
